Measured values gathered from unrelated publications.
Each line is one published result; not all experiments were run side by side.
Target: 5-hydroxytryptamine receptor 2B (HTR2B, Homo sapiens, UniProt P41595)
Sequence of UniProt P41595 (whole entry, looked up): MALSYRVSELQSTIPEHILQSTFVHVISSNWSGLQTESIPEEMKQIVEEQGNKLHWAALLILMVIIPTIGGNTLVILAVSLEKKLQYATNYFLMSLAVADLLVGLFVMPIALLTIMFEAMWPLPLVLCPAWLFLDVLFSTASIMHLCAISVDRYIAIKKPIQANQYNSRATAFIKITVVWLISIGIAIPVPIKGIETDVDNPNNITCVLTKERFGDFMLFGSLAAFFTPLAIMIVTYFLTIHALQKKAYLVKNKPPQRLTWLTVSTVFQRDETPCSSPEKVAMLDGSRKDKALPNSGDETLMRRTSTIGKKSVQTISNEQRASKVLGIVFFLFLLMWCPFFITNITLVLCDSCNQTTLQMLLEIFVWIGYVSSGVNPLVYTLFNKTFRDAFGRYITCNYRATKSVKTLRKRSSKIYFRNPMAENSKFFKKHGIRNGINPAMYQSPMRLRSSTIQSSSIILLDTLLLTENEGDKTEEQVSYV

Cc1[nH]nc2c1N=C(c1ccccc1Cl)c1cnc(N3CCOCC3)cc1N2 has an inhibition of 3% (cell-free assay; 10 µM).
c1ccc(OC[C@H]2CN(CCN3CCc4ccccc43)CCO2)nc1 gave an Emax of 6.9% (calcium signal, agonist, fluorescence).
The inhibition of CC(C)Cn1c(SCC(=O)N2CCc3ccccc3C2)nc2cc(Cl)ccc2c1=O is reported as 2% (ligand displacement, radioligand; 10 µM).
C[Si]1(C[C@H](CN)CC(=O)O)CCCC1 gave an inhibition of 6% (ligand displacement, radioligand; 70 µM).
The inhibition of Cc1ccnc(OC[C@H]2CN(CCN3CCc4ccccc43)CCO2)c1 is reported as 84.6% (radioligand binding; concentration not given, added: [3H]LSD).
COc1ccc(C(=O)Nc2c(-c3cccs3)nc3ccccn23)cc1 has an inhibition of under 50% (ligand displacement, radioligand; 10 µM).
C[Si](C)(C)C[C@H](CN)CC(=O)O has an inhibition of -14% (ligand displacement, radioligand; 250 µM).
The inhibition of COCC(=O)N1CCc2cc(-c3csc(NC(=O)c4cc(OC)cc(OC)c4)n3)ccc21 is reported as 24% (cell-free assay; 10 µM).
COc1ncc2nc(C)n(Cc3ncc(S(N)(=O)=O)cc3F)c2c1-c1ccccc1 has an inhibition of -12.6% (antagonist, cell-based; 10 µM).
With Cn1ccc2cc(-n3c(=O)[nH]c4sc5c(c4c3=O)CCCC5)ccc21 the inhibition was 92% (ligand displacement, radioligand; 10 µM).
The inhibition of O=C(CN1CCO[C@@H](COc2cccc(Cl)c2)C1)N1CCc2ccccc21 is reported as 74.6% (radioligand binding; concentration not given, added: [3H]LSD).
CNC(=O)C[C@H](Cc1ccc(C#N)cc1)NC(=O)c1cc(-c2ccc(CN[C@H](C)c3ccc(C)cc3)o2)ccc1Cl gave an inhibition of 37% (agonist response, antagonist; human cells; 10 µM, 5-HT2B antagonist).
CO[C@@H](C)c1c(NC(=O)Nc2cnc(-n3nccn3)c(C(F)(F)F)c2)cnc2sc(C)nc12 has an inhibition of 68% (ligand displacement, radioligand; 10 µM).
Cc1cccc(O[C@H]2CCC[C@@H](C(C)CNCc3ccncc3)C2)c1 (relative stereo) gave an inhibition of 72% (ligand displacement; 10 µM).
O=C1c2sc(-c3ccc(N4CCC(CO)CC4)nc3F)nc2CCN1c1cccnc1 gave an inhibition of -13% (ligand displacement, radioligand; 1 µM).
With CC1Cc2ccccc2N1C(=O)CN1CCN(Cc2ccccc2)CC1 (stereo not shown) the inhibition was 80% (radioligand binding; concentration not given, added: [3H]LSD).

For quick reference, copied from above:
C[Si](C)(C)C[C@H](CN)CC(=O)O has an inhibition of -14% (ligand displacement, radioligand; 250 µM).
The inhibition of COCC(=O)N1CCc2cc(-c3csc(NC(=O)c4cc(OC)cc(OC)c4)n3)ccc21 is reported as 24% (cell-free assay; 10 µM).
